Results from different studies.
Each line is one published result; not all experiments were run side by side. ± gives the spread as reported. In brackets after ≈: the same amount, converted by molar mass.

`N=C(N)NCCC[C@H](NC(=O)[C@H](CCCNC(=N)N)NC(=O)[C@H](Cc1c[nH]c2ccccc12)NC(=O)[C@H](Cc1c[nH]c2ccccc12)NC(=O)[C@H](CCCCN)NC(=O)[C@H](Cc1c[nH]c2ccccc12)NC(=O)[C@H](Cc1c[nH]c2ccccc12)NC(=O)[C@H](CCCNC(=N)N)NC(=O)[C@@H](N)CCCCN)C(N)=O` has an MIC of 10 µM (≈ 14.9 µg/mL) (Mycobacterium bovis; isoniazid-resistant mutant, broth with pyruvate; 48 h, 37 °C).
With `O=C(Nc1ccc([N+](=O)[O-])cc1)Nc1ccc(S(=O)(=O)Nc2ccc(Cl)c(Cl)c2)cc1` the MIC was 1.9 µM (≈ 0.915 µg/mL) (Bacillus anthracis; Sterne, LB medium).
`Cc1cc(/C=C/C#N)cc(C)c1Oc1nc(NC2CCN(Cc3ccc(P(C)(C)=O)cc3)CC2)nc2ccsc12`: “EC50 fold change” about 8.74 fold (HIV-1; MT-4, E138K; relative to: doravirine EC50 over cpd EC50).
`CSCC[C@@H]1NC(=O)[C@H](CC(C)C)NC(=O)[C@H](CCCNC(=N)N)NC(=O)[C@H](CO)NC(=O)[C@@H]2CSSC[C@@H]3NC(=O)[C@H](CO)NC(=O)CNC(=O)[C@H]([C@@H](C)O)NC(=O)[C@H](CSSC[C@H](N)C(=O)N[C@@H](CCCCN)C(=O)NCC(=O)N[C@@H](CCCCN)C(=O)NCC(=O)N[C@@H](C)C(=O)N[C@@H](CCCCN)C(=O)N2)NC(=O)[C@H](CSSC[C@@H](C(N)=O)NC(=O)[C@H](CCCCN)NC(=O)CNC(=O)[C@H](CO)NC(=O)[C@H](CCCNC(=N)N)NC3=O)NC(=O)[C@H](CC(=O)O)NC(=O)[C@H](Cc2ccc(O)cc2)NC1=O` gave an MIC of over 500 µM (Pseudomonas aeruginosa).
`C[n+]1ccccc1/C=N/O` gave a protection of 3.41 fold (dichlorvos; Swiss mice; 30 mg/kg, with: atropine; relative to: untreated poisoned mice).
For `Nc1c(C(=O)Nc2cccc(Cl)c2)sc2nc(-c3ccncc3)ccc12`, the MIC50 was over 160 µM (Bacillus anthracis; Sterne).
The EC50 of `NC12CC3CC(CC(C3)C1)C2` is reported as under 1000 nM (Influenza A virus; viral replication; MDCK, A/Swine/Minnesota/34-0801/2011 (H1N2)).
For `CC[C@H](C)[C@H](NC(=O)[C@H](Cc1ccc(O)cc1)NC(=O)[C@H](CO)NC(=O)[C@H](CCC(=O)O)NC(=O)[C@H](CC(N)=O)NC(=O)[C@H](CC(C)C)NC(=O)[C@H](C)NC(=O)[C@H](CCCCN)NC(=O)[C@@H](NC(=O)[C@@H](NC(=O)[C@H](CCC(N)=O)NC(=O)[C@H](CCC(N)=O)NC(=O)[C@H](CC(C)C)NC(=O)[C@H](CO)NC(=O)[C@H](CC(C)C)NC(=O)[C@H](CCSC)NC(=O)[C@H](CCC(=O)O)NC(=O)[C@H](Cc1ccc(O)cc1)NC(=O)[C@@H](NC(=O)[C@H](CC(C)C)NC(=O)[C@H](CC(=O)O)NC(=O)[C@H](CC(C)C)NC(=O)[C@H](CC(C)C)NC(=O)[C@@H](NC(=O)[C@@H](NC(=O)[C@H](CC(N)=O)NC(=O)[C@@H](NC(=O)[C@H](CCC(N)=O)NC(=O)[C@@H](NC(=O)[C@H](CC(C)C)NC(=O)[C@@H](N)CO)[C@@H](C)O)[C@@H](C)CC)[C@@H](C)O)[C@@H](C)O)[C@@H](C)O)C(C)C)C(C)C)C(=O)N[C@@H](CC(=O)O)C(=O)N[C@@H](CC(C)C)C(=O)N[C@@H](CCCCN)C(=O)N[C@@H](CCC(=O)O)C(=O)N[C@@H](CC(C)C)C(=O)O`, the IC50 was 600 nM (MERS-CoV; viral infection, CPE MTT; Calu-3).
With `CC(=O)N1C[C@@H](COP(=O)(N(C)C)N2C[C@@H](COP(=O)(N(C)C)N3C[C@@H](COP(=O)(N(C)C)N4C[C@@H](COP(=O)(N(C)C)N5C[C@@H](COP(=O)(N(C)C)N6C[C@@H](COP(=O)(N(C)C)N7C[C@@H](COP(=O)(N(C)C)N8C[C@@H](COP(=O)(N(C)C)N9C[C@@H](COP(=O)(N(C)C)N%10C[C@@H](COP(=O)(N(C)C)N%11C[C@@H](COP(=O)(N(C)C)N%12C[C@@H](COP(=O)(N(C)C)N%13C[C@@H](COP(=O)(N(C)C)N%14C[C@@H](COP(=O)(N(C)C)N%15C[C@@H](COP(=O)(N(C)C)N%16C[C@@H](COP(=O)(N(C)C)N%17C[C@@H](COP(=O)(N(C)C)N%18C[C@@H](COP(=O)(N(C)C)N%19C[C@@H](COP(=O)(N(C)C)N%20C[C@@H](COP(=O)(N(C)C)N%21C[C@@H](COP(=O)(N(C)C)N%22C[C@@H](COP(=O)(N(C)C)N%23C[C@@H](COP(=O)(N(C)C)N%24CCN(C(=O)CCCN%25C(=O)CC(SC[C@H](NC(=O)[C@H](CCCNC(=N)N)NC(=O)[C@H](CCCNC(=N)N)NC(=O)[C@H](CCCNC(=N)N)NC(=O)[C@H](CCCNC(=N)N)NC(=O)[C@H](Cc%26ccccc%26)NC(=O)[C@H](Cc%26ccccc%26)NC(=O)[C@H](CCCNC(=N)N)NC(=O)[C@H](CCCNC(=N)N)NC(=O)[C@H](CCCNC(=N)N)NC(=O)[C@H](CCCNC(=N)N)NC(=O)[C@@H](N)CCCNC(=N)N)C(N)=O)C%25=O)CC%24)O[C@@H](n%24cnc%25c(=O)[nH]c(N)nc%25%24)C%23)O[C@@H](n%23cc(C)c(=O)[nH]c%23=O)C%22)O[C@@H](n%22ccc(N)nc%22=O)C%21)O[C@@H](n%21cnc%22c(N)ncnc%22%21)C%20)O[C@@H](n%20cc(C)c(=O)[nH]c%20=O)C%19)O[C@@H](n%19ccc(N)nc%19=O)C%18)O[C@@H](n%18cc(C)c(=O)[nH]c%18=O)C%17)O[C@@H](n%17cc(C)c(=O)[nH]c%17=O)C%16)O[C@@H](n%16cnc%17c(=O)[nH]c(N)nc%17%16)C%15)O[C@@H](n%15ccc(N)nc%15=O)C%14)O[C@@H](n%14cnc%15c(=O)[nH]c(N)nc%15%14)C%13)O[C@@H](n%13ccc(N)nc%13=O)C%12)O[C@@H](n%12ccc(N)nc%12=O)C%11)O[C@@H](n%11cnc%12c(N)ncnc%12%11)C%10)O[C@@H](n%10cc(C)c(=O)[nH]c%10=O)C9)O[C@@H](n9cc(C)c(=O)[nH]c9=O)C8)O[C@@H](n8cc(C)c(=O)[nH]c8=O)C7)O[C@@H](n7cc(C)c(=O)[nH]c7=O)C6)O[C@@H](n6cc(C)c(=O)[nH]c6=O)C5)O[C@@H](n5cnc6c(=O)[nH]c(N)nc65)C4)O[C@@H](n4cc(C)c(=O)[nH]c4=O)C3)O[C@@H](n3cnc4c(=O)[nH]c(N)nc43)C2)O[C@@H](n2cnc3c(=O)[nH]c(N)nc32)C1` (some centres unmarked) the RTA-positive cells was about 5% (Kaposi's sarcoma-associated herpesvirus; immunofluorescence; BCBL1 cells; 16 µM, 48 h, added 4 h before TPA, with: TPA 20 ng/mL).
`O=C(CCCC(=O)Nc1ccc(Br)cc1)N/N=C/c1c2ccccc2cc2ccccc12` gave an MIC50 of 15 µM (≈ 7.33 µg/mL) (Bacillus anthracis; Sterne).
`C[C@H](NP(=O)(Nc1ccn([C@H]2CS[C@@H](CO)O2)c(=O)n1)N[C@@H](C)C(=O)OCc1ccccc1)C(=O)OCc1ccccc1` gave an EC50 of 400 ± 330 nM (HIV-2; viral replication; CCRF-CEM, ROD; 4 d).
The MIC of `CS(=O)(=O)NC(=O)NCc1cn(-c2ccc(Cl)cc2)nc1-c1ccncc1` is reported as 0.5 µM (≈ 0.203 µg/mL) (Mycobacterium tuberculosis; OD600; cyd deletion mutant).
With `CC[C@H](C)[C@H](NC(=O)[C@H](Cc1c[nH]c2ccccc12)NC(=O)[C@H](CCCCN)NC(=O)[C@H](CCCCN)NC(=O)[C@H](CC(C)C)NC(=O)[C@H](Cc1c[nH]c2ccccc12)NC(=O)[C@H](CCCCN)NC(=O)[C@@H](N)Cc1c[nH]c2ccccc12)C(=O)N[C@@H](CCCCN)C(N)=O` the MIC was 10 µM (≈ 13.1 µg/mL) (Bacillus anthracis; 34F2 Sterne, LB medium; 24 h, 37 °C).
For `O=C(NN1C(=O)[C@@H]2[C@@H]3C=C[C@@H]([C@H]4C[C@@H]34)[C@@H]2C1=O)c1ccc(C(F)(F)F)cc1`, “lung viral titre reduction” read 2.7 log (monkeypox virus; mice; oral, 50 mg/kg once daily; relative to: vehicle).

Repeated from above:
`C[C@H](NP(=O)(Nc1ccn([C@H]2CS[C@@H](CO)O2)c(=O)n1)N[C@@H](C)C(=O)OCc1ccccc1)C(=O)OCc1ccccc1` gave an EC50 of 400 ± 330 nM (HIV-2; viral replication; CCRF-CEM, ROD; 4 d).
The MIC of `CS(=O)(=O)NC(=O)NCc1cn(-c2ccc(Cl)cc2)nc1-c1ccncc1` is reported as 0.5 µM (≈ 0.203 µg/mL) (Mycobacterium tuberculosis; OD600; cyd deletion mutant).
